# Results pooled from the literature.
# Compare with care: the assays were run in different laboratories. ± marks the error that the study gave.
SMILES,organism,assay,test system,setting,how to read,endpoint,value
COc1ccc(C2OC(=O)c3ccc(-c4ccccc4)c(O)c32)c(OC)c1OC (stereo not drawn),Naegleria fowleri,"trophozoite ATP, CellTiter-Glo",ATCC 30808,"concentration not given, 24 h, 37 °C",baseline: untreated,ATP level decrease,66.5%
CC1(C)NCCC[C@]2(C)[C@H]3C=CC4=C5C[C@@](C)(CO)CC[C@]5(C)CC[C@@]4(C)[C@]3(C)CC[C@@H]12,Human cytomegalovirus,cytopathic effect,"HFF, AD169",concentration not given,,antiviral activity,inactive
CC[C@@H](C)[C@@H](NC(=O)[C@@H](C)NC(=O)[C@@H](CCCCN)NC(=O)[C@@H](CC(C)C)NC(=O)[C@@H](C)NC(=O)[C@H](NC(=O)[C@@H](CCCCN)NC(=O)[C@@H](CC(C)C)NC(=O)[C@H](NC(=O)[C@@H](CCCCN)NC(=O)[C@@H](CCCCN)NC(=O)[C@@H](CCCCN)NC(=O)[C@@H](C)NC(=O)[C@@H](CCCCN)NC(=O)[C@@H](CO)NC(=O)[C@@H](Cc1ccccc1)NC(=O)[C@H](NC(=O)[C@@H](CCCCN)NC(=O)[C@@H](CC(C)C)NC(=O)[C@@H](Cc1ccccc1)NC(=O)[C@@H](CO)NC(=O)[C@@H](CCCCN)NC(=O)[C@@H](Cc1c[nH]c2ccccc12)NC(=O)[C@@H](CCCCN)NC(C)=O)[C@H](C)O)C(C)C)[C@H](C)O)C(=O)N[C@H](CO)C(=O)N[C@H](CCCCN)C(N)=O,Acinetobacter baumannii,,11 isolates,,,MIC geometric mean,0.6 µM
CN(C)CCCSC(=S)N1CCN(C(=O)/C=C/c2coc3ccccc3c2=O)CC1,PVY,virus inactivation,,"500 µg/mL, mean",,inhibition,73.4%
CC[C@H](C)[C@H](NC(=O)[C@H](CCCCN)NC(=O)[C@H](CC(N)=O)NC(=O)[C@H](Cc1c[nH]c2ccccc12)NC(=O)[C@H](Cc1ccccc1)NC(=O)[C@H](CCCCN)NC(=O)[C@H](CCCCNC(=N)N)NC(=O)[C@H](CC(C)C)NC(=O)[C@H](Cc1c[nH]c2ccccc12)NC(=O)[C@H](CCCCN)NC(=O)[C@H](CCCCNC(=N)N)NC(=O)[C@H](CC(C)C)NC(=O)CNC(C)=O)C(=O)N[C@@H](CCCCN)C(=O)N[C@@H](CCCCNC(=N)N)C(N)=O,Gram-negative bacteria,,,,,geometric mean MIC,4.42 µM
C[C@@H](c1ccn(Cc2ccc(I)cc2)n1)[C@](O)(Cn1cnnn1)c1ccc(F)cc1F,Candida tropicalis,"growth, broth microdilution",2718,"24 h, 30 °C, ≥50% inhibition",,MIC,< 0.008 µg/mL
O=C(c1ccc(Cl)c([N+](=O)[O-])c1)N1CCN(c2ccccc2F)CC1,Saccharomyces cerevisiae,cell growth,wild type,,,IC50,2.87 ± 0.6 µM
C=CCNCc1cc(N(C)C)c2c(c1O)C(=O)C1=C(O)[C@]3(O)C(=O)C(C(N)=O)=C(O)[C@@H](N(C)C)[C@@H]3C[C@@H]1C2,Streptococcus pneumoniae,"microbial growth, broth dilution",,,,MIC,0.5 µg/mL
Nc1cc2nc(-c3ccccc3)cn2cn1,Trypanosoma cruzi,,"3T3 host cells, Tulahuen beta-galactosidase",6 days,,EC50,> 20 µM
CN(C)Cc1cc(N(C)C)c2c(c1O)C(=O)C1=C(O)[C@]3(O)C(=O)C(C(N)=O)=C(O)[C@@H](N(C)C)[C@@H]3C[C@@H]1C2,Streptococcus pneumoniae,"microbial growth, broth dilution",,,,MIC,0.25 µg/mL
COc1ccc(Nc2c(C#N)cnc3ccc(Cl)cc23)cc1,Trypanosoma cruzi,,"cardiomyocytes, intracellular amastigotes, Y",,baseline: without hemin over with hemin,IC50 reduction by hemin,2 fold
CC(C)CNCc1cc(N(C)C)c2c(c1O)C(=O)C1=C(O)[C@]3(O)C(=O)C(C(N)=O)=C(O)[C@@H](N(C)C)[C@@H]3C[C@@H]1C2,Streptococcus pneumoniae,,157E,50% mouse serum,,MIC,0.25 µg/mL
N#Cc1ccc(-c2cn([C@@H]3O[C@H](CO)[C@@H](O)[C@H]3O)c3ncnc(N)c23)cc1,Trichomonas vaginalis,resorufin,"G3, metronidazole-sensitive","24 h + 2 h, 2% O2",,EC50,2.16 ± 0.03 µM
CCC1(C)CCN(Cc2cc(N(C)C)c3c(c2O)C(=O)C2=C(O)[C@]4(O)C(=O)C(C(N)=O)=C(O)[C@@H](N(C)C)[C@@H]4C[C@@H]2C3)CC1,Streptococcus pneumoniae,,157E,50% mouse serum,,MIC,0.25 µg/mL
COc1cc(Cn2ccc([C@H](C)[C@](O)(Cn3cnnn3)c3ccc(F)cc3F)n2)ccc1F,Candida tropicalis,"growth, broth microdilution",2718,"24 h, 30 °C, ≥50% inhibition",,MIC,< 0.008 µg/mL

# Repeated from above:
SMILES,organism,assay,test system,setting,how to read,endpoint,value
C[C@@H](c1ccn(Cc2ccc(I)cc2)n1)[C@](O)(Cn1cnnn1)c1ccc(F)cc1F,Candida tropicalis,"growth, broth microdilution",2718,"24 h, 30 °C, ≥50% inhibition",,MIC,< 0.008 µg/mL
O=C(c1ccc(Cl)c([N+](=O)[O-])c1)N1CCN(c2ccccc2F)CC1,Saccharomyces cerevisiae,cell growth,wild type,,,IC50,2.87 ± 0.6 µM
